Experimental data pooled from the literature.
Parts stem from different laboratories: compare values within a part only.

Block 1 — technique: protein-binding microarray; form: double-stranded DNA, one strand shown; matrix: in vitro; concentration: 0.8 µM; setting: whole 60-bp probe, no competitor; reading: higher = stronger binding; shared flanks, not repeated: … GTCTTGATTCGCTTGACGCTGCTG
Target: Centromere-binding protein 1, full length, N-terminal tag (CBF1, Saccharomyces cerevisiae, UniProt P17106, residues 1-351)
Sequence of UniProt P17106 (whole entry, looked up): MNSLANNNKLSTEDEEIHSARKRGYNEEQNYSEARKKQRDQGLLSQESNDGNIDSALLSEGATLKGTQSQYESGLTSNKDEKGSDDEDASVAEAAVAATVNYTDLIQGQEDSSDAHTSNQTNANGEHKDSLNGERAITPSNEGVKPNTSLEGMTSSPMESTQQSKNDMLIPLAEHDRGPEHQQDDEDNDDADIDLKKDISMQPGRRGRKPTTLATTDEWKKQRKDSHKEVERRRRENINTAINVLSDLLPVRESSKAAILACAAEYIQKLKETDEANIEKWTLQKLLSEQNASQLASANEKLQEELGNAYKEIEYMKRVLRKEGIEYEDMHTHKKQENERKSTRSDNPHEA
With `GAAGATGTGTTTTATCACGAGGCCCAATCGAAATAG` the fluorescence intensity was 965 a.u.
The fluorescence intensity of `GAAATTTTAGCAACCCACACCATATACCTTTGGTAG` is reported as 498 a.u.
For `CTAGAAAATAGTCGACGTCAGTCACCTCCAGGTTTC`, the fluorescence intensity was 515 a.u.
`CTAAAAGTGATTTATCAGATGAAAGGCAAATCTTTC` gave a fluorescence intensity of 510 a.u.
With `CTAACGCGTCCACACCACCTCACCCTCGAAATGTTC` the fluorescence intensity was 569 a.u.
For `GAATCAACTATCACTTACACCTGAGTGTTGTCATAG`, the fluorescence intensity was 502 a.u.
`CCTAACTACTATATCTGCGTGTCATAGCTTCGTACA` gave a fluorescence intensity of 536 a.u.
For `CCTAACTACTATAATCACGCCACATAGCTTCGTACA`, the fluorescence intensity was 754 a.u.
For `CTAAAATAGCATTTGCGTGCTTAAGTGAAATTTTTC`, the fluorescence intensity was 502 a.u.
`GAATAATATACTGGTAGTGTGACTACTAGTTTATAG` gave a fluorescence intensity of 919 a.u.

Block 2 — technique: RNA Bind-n-Seq; form: RNA; matrix: in vitro; concentration: not given; reference: input RNA pool; reading: higher = stronger binding
Target: RING finger protein unkempt homolog, zinc fingers 1-6, GST-SBP tag (UNK, Homo sapiens, UniProt Q9C0B0, residues 30-357)
Setting: RNA with constant flanks, human-mouse chimeric sites, ends assumed
Shared flanks, not repeated: GGGAGUUCUACAGUCCGACGAUC … CAACAGAGGAUUGAGCAUCA
Target sequence (chain): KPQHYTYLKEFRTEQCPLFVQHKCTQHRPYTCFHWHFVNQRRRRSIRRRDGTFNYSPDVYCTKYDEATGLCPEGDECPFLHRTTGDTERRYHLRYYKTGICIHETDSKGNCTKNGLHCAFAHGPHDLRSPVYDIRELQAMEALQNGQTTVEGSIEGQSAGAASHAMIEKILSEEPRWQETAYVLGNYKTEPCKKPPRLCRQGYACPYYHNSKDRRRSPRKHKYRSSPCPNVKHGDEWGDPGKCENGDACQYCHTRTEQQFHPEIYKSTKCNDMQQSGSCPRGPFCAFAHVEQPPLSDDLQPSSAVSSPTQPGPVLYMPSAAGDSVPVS
The bound/input enrichment of `AGAAUCUUGGGACUGUUUUACUUAAUUGGUCAUUGGUAGCUUAACAAACAUGGAGAUAAGAUUAGAAAUCUUGACAUCAACAGGUAUUAAGCAGAAAAAACCAUGGCCACGUGUCUCCUG` is reported as 0.103 ratio.
`CAUGUAUCUGCAGUGCUUGAUGUGGACUACUCUCCCACUGGGAAGGAAUUUGUGUCUGCCAGCUUUGAUAAGUCUAUUAGAAUCUUUCCUGUGGACAAGAGCCGAAGCAGGGAAGUGUAU` gave a bound/input enrichment of 0.605 ratio.
The bound/input enrichment of `GUUGCCAGCUUCCGGUUCCGUUGGGCUAGCAAGCUCCCUGAGCUACGUGUCUCUACGCUCUCAAUCCGCCAUCCAACAAACAUGGAUCAGGUAAUGCAGUUUGUGGAGCCCAGCCGGCAG` is reported as 0.0901 ratio.
With `UCUUUAAAAAAAAAAUUACCUUUUCUGACAGUGCUUUCCCUCCCAUAGAUCCACGUUCACACUAGAAGAGCAAAGGCUCCGCAAACAGCUCAAACAUCUGAUGAAGAAAGAUUUCUGAGA` the bound/input enrichment was 1.76 ratio.
`GUCAACAGCUGCCUCAAUCCCAUUCUCUACGCCUUCCUGGAUGAGAACUUCAAGGCCUGCUUUAGAAAGUUCUGCUGUGCAUCUGCCCUGCGCCGGGACGUGCAGGUGUCUGACCGCGUG` has a bound/input enrichment of 0.526 ratio.
`GUGUCCUGCUUUCAACUUAAAUCACUGAGGCAUCUCUACUAUUCUGUGAGCAUCAGGACUGUAGCGCUUGCCACCACCAUGAGAGUUCAGAAGCAGCCUUUCUGUGGAGGGUGGGAAUGA` has a bound/input enrichment of 0.162 ratio.
The bound/input enrichment of `GAUCUCGGGCCCUCCCCAGGGGCCUCCUUUCGUAUAGUCACUGCUUCUGCAUCAGAUACUUUCAGCUGCAACUCCCUACUGGGUGGGGCACCCAUUUGAGGCAGGGUGUUUUGGUACCCU` is reported as 0.352 ratio.
The bound/input enrichment of `ACAGUUAUAUUGUUGAGUUUCAUUUUCAUAUAUUCUUAUGGUGUCUGCUUGCCUGUGACUUCUGGUAAAAUAAAAUAUUAAAAUUACAAUAUUUUAGCAUGGUAUUUAACAUUUUCUAAA` is reported as 1.23 ratio.

Block 3 — technique: RNA Bind-n-Seq; form: RNA; matrix: in vitro; concentration: 200 nM; setting: whole 134-nt RNA, ends assumed; added: 150 mM KCl; reference: input library; reading: higher = stronger binding
Target: Fragile X messenger ribonucleoprotein 1, C-terminal low-complexity region (Fmr1, Mus musculus, UniProt P35922)
Shared flanks, not repeated: GGGAGUUCUACAGUCCGACGAUC … UGGAAUUCUCGGGUGUCAAGG
For `AAGUCCUGUGCUACACAUCGUAUGUACCGAAUCGGGAAAGGGGAAAGGGGAAAGGGGAAAGUAUUAUGUUACGCCGUUCGGAUCUGCACU`, the log2 enrichment was 0.206.
`GCAGGAAGUAAAAACAAAUGGAAAUGCUUCGGAUAGUGGCAGGGGUGGGGGUUGCUAAGGAAAGGGUGGGAUGGGAGUAGGUAAAGAGUU` gave a log2 enrichment of 0.0242.
The log2 enrichment of `UGGCCCUGGAGGCAUGCGGGGAGGAAGAGGUGGCCUCAUGGAUCGUGGUGGUCCCGGUGGAAUGUUCAGAGGUGGCCGUGGUGGAGACAG` is reported as 0.0173.
`CCUCAAGUCCUGUGCUACACAUCGUAUGUACCGAAUCGGAAAAAGGUGGAGGAAAGUAUUAUGUUACGCCGUUCGGAUCUGCACUUCCAG` has a log2 enrichment of 0.295.
`CUCAAGUCCUGUGCUACACAUCGUAUGUACCGAAUCGGUUGGGGUUGGUUGGGAAAGUAUUAUGUUACGCCGUUCGGAUCUGCACUUCCA` gave a log2 enrichment of 0.189.
For `UCAGGUCCUUAAGUACCUUCGUAUUACUUUUAGCAGGAAAAACGGCAUGUUUUGCAUCUGGUGUGCAAUGUGAAGAGUCCUUCAAAAAUG`, the log2 enrichment was 0.138.
`UUCCUCAAGUCCUGUGCUACACAUCGUAUGUACCGAAUCGGAGGUGGUGGAAAGUAUUAUGUUACGCCGUUCGGAUCUGCACUUCCAGCA` has a log2 enrichment of -0.647.
The log2 enrichment of `UCCUGUGCUACACAUCGUAUGUACCGAAUCAAAGUGUGUGUGUGUGUGUGUGUGUGUAAAAAAGUAUUAUGUUACGCCGUUCGGAUCUGC` is reported as 0.559.
With `CCUGUGCUACACAUCGUAUGUACCGAAUCGGGGAAAAAAGGAAAAAAGGGAAAAAAGGGGAAAGUAUUAUGUUACGCCGUUCGGAUCUGC` the log2 enrichment was -0.475.

Block 4 — technique: RNA Bind-n-Seq; form: RNA; matrix: in vitro; concentration: 365 nM; reference: no-protein control; reading: higher = stronger binding
Target: RNA binding protein fox-1 homolog 2, RRM domain, GST-SBP tag (RBFOX2, Homo sapiens, UniProt O43251-10, residues 100-194)
Setting: natural RNA segment, single round, ends assumed
Shared flanks, not repeated: GGGAGUUCUACAGUCCGACGAUC … UGGAAUUCUCGGGUGCCAA
Target sequence (chain): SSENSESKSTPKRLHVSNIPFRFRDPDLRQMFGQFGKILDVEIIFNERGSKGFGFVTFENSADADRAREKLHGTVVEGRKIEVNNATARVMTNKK
`AAGAAUUCUUGCCAUGGUCCUAAAAACUGGAUUUUAAGAUUAUUUUACUUCCCCUUCAUGCCUGUCUCCAGUAUCCACCCCAGCUUCUUUCUGAAUGUAAGGGAUUAAGA`: “RBNS enrichment (R)” 2.26.
`AUCCUUUCCAGAAACAGAAAGAGCUCUUAACCUCUCUGAGCUCUUUCUGCAAUUCCUUUGGGCGAUUUCUGAAAGUUGCCACCCACGUACUCACAGAUCCACUGCCCGCC`: “RBNS enrichment (R)” 0.408.
`UCACUUUGUAGACCAGGCUGGCCUCGAACUCAGAAAUCCGCCUGCCUCUGCCUCCCGAGUGCUGGGAUUAAAGGCGUGCGCCACCACGCCCGGCUCUGUUCAUCCUUUUA` — result for “RBNS enrichment (R)”: 0.339.
Under “RBNS enrichment (R)”, `ACUCUUUUAAGAUUCAGAGGGUACAGAACAACCUCUAUUAUUUCAGAGUACCCUUGAGAAUUGAAAUGUAUUUCGAUUAGUUGUCUUUAAUUAGCUAGCUAGAGUCAGUU` is recorded as 0.37.
Under “RBNS enrichment (R)”, `GAGCCAUGCUACAGUUAGUCUUGUCCCAAUUAAAAUACUAUGCAGUAUCUCUUACAUCAGUAGCAUUUUUCUAAAACCUUAGUCAUCAGAUAUGCUUACUAAAUCUUCAG` is recorded as 0.364.
`UGUCUGCACUGAGAAACCUCCCCGGGUGAUGUCUGCAAAGUCUGUGCUGUCCGUGCCCCAGGCUGGGAGAGCUAUCUGGGGAGGGGGAGAGGAGGCCGAGCAGAAUACAC` — result for “RBNS enrichment (R)”: 0.358.
For `CACACAGUUCGGAAAGACUACAGAUCUUAACGAUCAGCCUUCGCUCCUAAUGUAUUUGUUGGUUUCAUUUCAUUUUCAUUUUGCACUUGCACUAAAUUGAACAUGACCCU`, “RBNS enrichment (R)” read 0.633.
Under “RBNS enrichment (R)”, `GUAAAGAAUUGGUGUAGUCAUGACUUUAGCUGAUACUCUUAUGUACGAGAUCUGUCUCUGCUGUUUAACUUCAUUGGAUUAAUCAGCUGGUUUCAACUCUACUGCGAAAC` is recorded as 0.324.

For quick reference, copied from above (block 4):
For `CACACAGUUCGGAAAGACUACAGAUCUUAACGAUCAGCCUUCGCUCCUAAUGUAUUUGUUGGUUUCAUUUCAUUUUCAUUUUGCACUUGCACUAAAUUGAACAUGACCCU`, “RBNS enrichment (R)” read 0.633.
Under “RBNS enrichment (R)”, `GUAAAGAAUUGGUGUAGUCAUGACUUUAGCUGAUACUCUUAUGUACGAGAUCUGUCUCUGCUGUUUAACUUCAUUGGAUUAAUCAGCUGGUUUCAACUCUACUGCGAAAC` is recorded as 0.324.
Under “RBNS enrichment (R)”, `GAGCCAUGCUACAGUUAGUCUUGUCCCAAUUAAAAUACUAUGCAGUAUCUCUUACAUCAGUAGCAUUUUUCUAAAACCUUAGUCAUCAGAUAUGCUUACUAAAUCUUCAG` is recorded as 0.364.
`AUCCUUUCCAGAAACAGAAAGAGCUCUUAACCUCUCUGAGCUCUUUCUGCAAUUCCUUUGGGCGAUUUCUGAAAGUUGCCACCCACGUACUCACAGAUCCACUGCCCGCC`: “RBNS enrichment (R)” 0.408.
